Measurements of several laboratories.
Several values in a cell are separate wells, animals, samples, runs or records. ± marks the error that the study gave.

O=c1c(O)c(-c2ccc(O)cc2)oc2c(Br)c(O)c(Br)c(O)c12 — inhibition (bovine serum albumin; methylglyoxal-mediated glycation, fluorescence; concentration not given): 72.2 ± 1.26%
CC(=O)O[C@H]1C[C@H]2[C@@](C)(CC[C@H]3C(C)(C)CCC[C@@]32C=O)[C@@H]2CC=C(C(C)=O)[C@H](C=O)[C@@]12C — activity class (HIF-2α human; HRE-luciferase reporter gene; 786-0 cells with HRE-luciferase reporter; 100 µM, active cut-off 100 µM): active
O=S(=O)(NCCNC/C=C/c1ccc(Br)cc1)c1cccc2cnccc12 — embryos arrested at zygote stage (PKA; inhibitor; mouse zygotes; 20 µM, injection, hCG, 120 h post, early embryonic development): 0%
CCN1C(=O)c2ccccc2[C@H]1Nc1ccc(C(=O)N2CCN(C/C=C/c3ccccc3)CC2)cc1 — NAADP-mediated Ca2+ release (NAADP receptor; antagonist, fluo-3 fluorescence; Lytechinus pictus, egg homogenate; up to 6 µM, added: NAADP 30 to 50 nM): inactive
CC(C)C[C@H](NC(=O)[C@H](Cc1ccc(O)cc1)NC(=O)[C@H](CCC(N)=O)NC(=O)[C@@H](N)CC(=O)O)C(=O)N[C@@H](C)C(=O)N[C@H](C(=O)N1CCC[C@H]1C(=O)N[C@@H](CCC(N)=O)C(=O)N[C@@H](Cc1c[nH]cn1)C(=O)N1CCC[C@H]1C(=O)N[C@@H](Cc1ccc(O)cc1)C(=O)N[C@@H](CCC(N)=O)C(=O)N[C@@H](Cc1c[nH]c2ccccc12)C(=O)N[C@@H](C)C(=O)N[C@@H](CCCCN)C(=O)O)C(C)C — fraction bound (human calcineurin A/B; NMR HSQC; 62 µM, added: 75 µM CnAB): 90%
CN1C(=O)/C(=C/c2ccccc2F)Sc2ccc(C(=O)N3CCN(Cc4ccc5c(c4)OCO5)CC3)cc21 — NAADP-mediated Ca2+ release (NAADP receptor; antagonist, fluo-3 fluorescence; Lytechinus pictus, egg homogenate; up to 6 µM, added: NAADP 30 to 50 nM): inactive
CN(C)CCCn1c(=O)c2ccc3c(=O)n(CCCN(C)C)c(=O)c4c5[nH]c6ccccc6[nH]c5c(c1=O)c2c34 — ΔTm (human telomeric G-quadruplex; FRET melting; 0.25 µM, K+ 100 mM): 6 ± 0.1 °C
c1coc(-c2n[nH]cc2-c2ccnc3ccccc23)c1 — log2 fold change (PBS2 (Candida albicans); kinase binding, MIB/MS competition; Candida albicans lysate; 1 µM; reference: DMSO): -0.27
COc1cccc(CNC(=O)C#Cc2cn(Cc3ccc(C(=O)O)cc3)c(=O)[nH]c2=O)c1 — remaining MMP-9 activity (MMP-9; inhibitor, colorimetric; 20 µM): 96 ± 11%
O=c1c(O)c(-c2ccc(O)c(O)c2)oc2cc(O)cc(O)c12 — fluorescent AGE formation (bovine serum albumin; fructose glycation, inhibitor; 100 to 800 ppm, 21 days, added: fructose): decreased
Oc1ccccc1-c1n[nH]cc1-c1ccnc2ccccc12 — log2 fold change (CTK1 (Candida albicans); kinase binding, MIB/MS competition; Candida albicans lysate; 1 µM; reference: DMSO): -0.02
COc1ccccc1-c1n[nH]c2nc(N[C@H]3CC[C@H](NS(=O)(=O)CCCOCCOCCNC(=O)OC(C)(C)C)CC3)ncc12 — log2 SILAC ratio heavy/light (Leishmania donovani CYC6 (LINJ.32.3520); resin binding competition; promastigote lysate; 10 µM; reference: DMSO): 3.12
CCS(=O)(=O)c1nc(S(=O)(=O)c2ccccc2Cl)c(N2CC3(CC3)C2)s1 — EC50 (Keap1-NRF2, human; NRF2 nuclear translocation, activator; U2OS): > 31.6 µM
CCN(CC)CCOC(=O)c1ccc(NC(=O)c2cc(-c3cccc4ccccc34)nc3ccccc23)cc1 — NAADP-mediated Ca2+ release (NAADP receptor; antagonist, fluo-3 fluorescence; Lytechinus pictus, egg homogenate; up to 6 µM, added: NAADP 30 to 50 nM): inactive
CC(C)NCC(O)c1ccc(O)c(O)c1 (stereo not drawn) — β-arrestin2 recruitment (β2 adrenergic receptor E122Q (human); PRESTO-Tango luciferase; HTLA cells; 3 µM): 2990 RLU and 3810 RLU and 3750 RLU and 3350 RLU and 4450 RLU and 3940 RLU
O=c1c(O)c(-c2ccc(O)cc2)oc2cc(O)cc(O)c12 — inhibition (bovine serum albumin; methylglyoxal-mediated glycation, fluorescence; concentration not given): 78.3 ± 2.63%
CN(C)CCCn1c(=O)c2cc(Br)c3c(=O)n(CCCN(C)C)c(=O)c4c5[nH]c6ccc(C(=O)O)cc6[nH]c5c(c1=O)c2c34 — ΔTm (human telomeric G-quadruplex; FRET melting; 0.25 µM, K+ 100 mM): 3 ± 0.1 °C
COc1cc2c(cc1OC)-c1cc(NCCN3CCN(C(=O)c4ccc(F)cc4)CC3)nc(=O)n1CC2 — NAADP-mediated Ca2+ release (NAADP receptor; antagonist, fluo-3 fluorescence; Lytechinus pictus, egg homogenate; up to 6 µM, added: NAADP 30 to 50 nM): inactive
CN(C)CCCn1c(=O)c2ccc3c(=O)n(CCCN(C)C)c(=O)c4c5[nH]c6cc([N+](=O)[O-])ccc6[nH]c5c(c1=O)c2c34 — ΔTm (human telomeric G-quadruplex; FRET melting; 0.25 µM, K+ 100 mM): 5.3 ± 1.1 °C
COc1ccc(CNc2c(CO)cnc3c(C4CC4)cc(C#N)cc23)cn1 — IC50 (PDE4; inhibitor): > 10 µM
C[C@@H]1CCc2c(sc(NC(=O)CN3CCN(S(=O)(=O)c4ccc5c(c4)OCCO5)CC3)c2C#N)C1 — NAADP-mediated Ca2+ release (NAADP receptor; antagonist, fluo-3 fluorescence; Lytechinus pictus, egg homogenate; up to 6 µM, added: NAADP 30 to 50 nM): inactive
O=C(O)COP(=O)(O)O — ΔTm (SAR11_0271 Candidatus Pelagibacter sp.; differential scanning fluorimetry; concentration not given; higher = stronger binding): 4.29 °C
C[N+](C)(C)CCCn1c(=O)c2cc(Br)c3c(=O)n(CCC[N+](C)(C)C)c(=O)c4c5[nH]c6ccccc6[nH]c5c(c1=O)c2c34.[I-].[I-] — ΔTm (human telomeric G-quadruplex; FRET melting; 0.25 µM, K+ 100 mM): 3.8 ± 0.3 °C
COc1ccc(S(=O)(=O)N2CCN([C@H](C)C(=O)Nc3ccccc3-c3ccccc3)CC2)cc1 — NAADP-mediated Ca2+ release (NAADP receptor; antagonist, fluo-3 fluorescence; Lytechinus pictus, egg homogenate; up to 6 µM, added: NAADP 30 to 50 nM): inactive

Repeated from above:
C[C@@H]1CCc2c(sc(NC(=O)CN3CCN(S(=O)(=O)c4ccc5c(c4)OCCO5)CC3)c2C#N)C1 — NAADP-mediated Ca2+ release (NAADP receptor; antagonist, fluo-3 fluorescence; Lytechinus pictus, egg homogenate; up to 6 µM, added: NAADP 30 to 50 nM): inactive
O=C(O)COP(=O)(O)O — ΔTm (SAR11_0271 Candidatus Pelagibacter sp.; differential scanning fluorimetry; concentration not given; higher = stronger binding): 4.29 °C
C[N+](C)(C)CCCn1c(=O)c2cc(Br)c3c(=O)n(CCC[N+](C)(C)C)c(=O)c4c5[nH]c6ccccc6[nH]c5c(c1=O)c2c34.[I-].[I-] — ΔTm (human telomeric G-quadruplex; FRET melting; 0.25 µM, K+ 100 mM): 3.8 ± 0.3 °C
COc1ccc(S(=O)(=O)N2CCN([C@H](C)C(=O)Nc3ccccc3-c3ccccc3)CC2)cc1 — NAADP-mediated Ca2+ release (NAADP receptor; antagonist, fluo-3 fluorescence; Lytechinus pictus, egg homogenate; up to 6 µM, added: NAADP 30 to 50 nM): inactive
